# Measurements collected from several papers.
# Every numbered part comes from another study and shows a few of its results, in no order. “And” joins repeats or separate records; there may be more than shown.
# Chain of UniProt P35462 (whole entry, looked up): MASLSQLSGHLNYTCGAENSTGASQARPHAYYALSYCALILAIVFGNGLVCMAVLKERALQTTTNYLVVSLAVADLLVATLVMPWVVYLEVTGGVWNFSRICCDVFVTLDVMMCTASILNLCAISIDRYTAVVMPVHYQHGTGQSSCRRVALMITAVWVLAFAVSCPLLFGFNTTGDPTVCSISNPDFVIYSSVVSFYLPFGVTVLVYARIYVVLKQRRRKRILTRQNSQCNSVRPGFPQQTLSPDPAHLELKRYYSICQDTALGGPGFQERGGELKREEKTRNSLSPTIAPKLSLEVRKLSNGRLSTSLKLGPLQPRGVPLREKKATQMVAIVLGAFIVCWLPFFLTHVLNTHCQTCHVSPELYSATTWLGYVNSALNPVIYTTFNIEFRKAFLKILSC

# Sample 1
# Compound: Cc1ncc(-c2cc3cc(-c4c(C)ccc(O)c4C)cnc3[nH]2)cn1
# Target: Membrane-associated tyrosine- and threonine-specific cdc2-inhibitory kinase (PKMYT1, Homo sapiens, UniProt Q99640)
# Target sequence (Q99640 1-499): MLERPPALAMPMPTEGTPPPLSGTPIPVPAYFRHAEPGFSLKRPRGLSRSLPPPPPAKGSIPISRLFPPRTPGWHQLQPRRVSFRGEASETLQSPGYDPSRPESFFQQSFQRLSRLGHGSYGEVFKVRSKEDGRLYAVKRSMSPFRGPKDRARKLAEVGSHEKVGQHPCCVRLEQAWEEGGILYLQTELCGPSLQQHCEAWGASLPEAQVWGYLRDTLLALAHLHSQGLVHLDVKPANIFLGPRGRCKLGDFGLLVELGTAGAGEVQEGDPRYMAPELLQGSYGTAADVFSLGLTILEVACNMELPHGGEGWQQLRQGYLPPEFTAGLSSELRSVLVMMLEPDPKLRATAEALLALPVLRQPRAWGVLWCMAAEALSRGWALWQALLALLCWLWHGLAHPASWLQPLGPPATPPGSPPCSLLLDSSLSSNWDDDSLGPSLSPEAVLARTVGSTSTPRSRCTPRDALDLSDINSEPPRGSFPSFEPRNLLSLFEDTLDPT
assay,setting,inhibition [%]
"cell-free assay, TR-FRET",0.3704 µM,95.8
"cell-free assay, TR-FRET",1.111 µM,98.3
,1.111 µM,102
,0.01372 µM,40.4
"cell-free assay, TR-FRET",41.15 nM,69.6

# Sample 2 — method: Incucyte 3D growth; concentration: 30 µM; reading: higher = more growth
# SMILES: CC(C)(C(=O)O)[C@H](NC(=O)Cc1cccc(I)c1)c1ccc2oc(=O)[nH]c2c1
cell line,setting,spheroid area
PC-9,72 h,5.38e+08 a.u. and 5.65e+08 a.u. and 5.29e+08 a.u. and 5.6e+08 a.u. and 5.61e+08 a.u.
MEL-JUSO,336.52 h,3.66e+07 a.u. and 3.12e+07 a.u. and 4.23e+07 a.u. and 3.91e+07 a.u. and 3.26e+07 a.u. and 5.15e+07 a.u.
IPC-298,24 h,2.34e+07 a.u. and 2.28e+07 a.u. and 1.8e+07 a.u. and 1.87e+07 a.u. and 2.01e+07 a.u. and 2.17e+07 a.u.
PC-9,90 h,6.62e+08 a.u. and 6.5e+08 a.u. and 6.77e+08 a.u. and 6.7e+08 a.u. and 6.71e+08 a.u. and 6.78e+08 a.u.
A375,498.52 h,1.55e+08 a.u. and 1.45e+08 a.u. and 1.41e+08 a.u. and 1.56e+08 a.u. and 1.43e+08 a.u. and 1.77e+08 a.u.
PC-9,150 h,1.17e+09 a.u. and 1.18e+09 a.u. and 1.11e+09 a.u. and 1.21e+09 a.u. and 1.14e+09 a.u.

# Sample 3 — effect on: enzyme activity; action: inhibitor; concentration: 0.5 µM; relative to: control
# Target: Serine/threonine-protein kinase WNK3 (WNK3, Homo sapiens, UniProt Q9BYP7)
# Chain of UniProt Q9BYP7 (whole entry, looked up): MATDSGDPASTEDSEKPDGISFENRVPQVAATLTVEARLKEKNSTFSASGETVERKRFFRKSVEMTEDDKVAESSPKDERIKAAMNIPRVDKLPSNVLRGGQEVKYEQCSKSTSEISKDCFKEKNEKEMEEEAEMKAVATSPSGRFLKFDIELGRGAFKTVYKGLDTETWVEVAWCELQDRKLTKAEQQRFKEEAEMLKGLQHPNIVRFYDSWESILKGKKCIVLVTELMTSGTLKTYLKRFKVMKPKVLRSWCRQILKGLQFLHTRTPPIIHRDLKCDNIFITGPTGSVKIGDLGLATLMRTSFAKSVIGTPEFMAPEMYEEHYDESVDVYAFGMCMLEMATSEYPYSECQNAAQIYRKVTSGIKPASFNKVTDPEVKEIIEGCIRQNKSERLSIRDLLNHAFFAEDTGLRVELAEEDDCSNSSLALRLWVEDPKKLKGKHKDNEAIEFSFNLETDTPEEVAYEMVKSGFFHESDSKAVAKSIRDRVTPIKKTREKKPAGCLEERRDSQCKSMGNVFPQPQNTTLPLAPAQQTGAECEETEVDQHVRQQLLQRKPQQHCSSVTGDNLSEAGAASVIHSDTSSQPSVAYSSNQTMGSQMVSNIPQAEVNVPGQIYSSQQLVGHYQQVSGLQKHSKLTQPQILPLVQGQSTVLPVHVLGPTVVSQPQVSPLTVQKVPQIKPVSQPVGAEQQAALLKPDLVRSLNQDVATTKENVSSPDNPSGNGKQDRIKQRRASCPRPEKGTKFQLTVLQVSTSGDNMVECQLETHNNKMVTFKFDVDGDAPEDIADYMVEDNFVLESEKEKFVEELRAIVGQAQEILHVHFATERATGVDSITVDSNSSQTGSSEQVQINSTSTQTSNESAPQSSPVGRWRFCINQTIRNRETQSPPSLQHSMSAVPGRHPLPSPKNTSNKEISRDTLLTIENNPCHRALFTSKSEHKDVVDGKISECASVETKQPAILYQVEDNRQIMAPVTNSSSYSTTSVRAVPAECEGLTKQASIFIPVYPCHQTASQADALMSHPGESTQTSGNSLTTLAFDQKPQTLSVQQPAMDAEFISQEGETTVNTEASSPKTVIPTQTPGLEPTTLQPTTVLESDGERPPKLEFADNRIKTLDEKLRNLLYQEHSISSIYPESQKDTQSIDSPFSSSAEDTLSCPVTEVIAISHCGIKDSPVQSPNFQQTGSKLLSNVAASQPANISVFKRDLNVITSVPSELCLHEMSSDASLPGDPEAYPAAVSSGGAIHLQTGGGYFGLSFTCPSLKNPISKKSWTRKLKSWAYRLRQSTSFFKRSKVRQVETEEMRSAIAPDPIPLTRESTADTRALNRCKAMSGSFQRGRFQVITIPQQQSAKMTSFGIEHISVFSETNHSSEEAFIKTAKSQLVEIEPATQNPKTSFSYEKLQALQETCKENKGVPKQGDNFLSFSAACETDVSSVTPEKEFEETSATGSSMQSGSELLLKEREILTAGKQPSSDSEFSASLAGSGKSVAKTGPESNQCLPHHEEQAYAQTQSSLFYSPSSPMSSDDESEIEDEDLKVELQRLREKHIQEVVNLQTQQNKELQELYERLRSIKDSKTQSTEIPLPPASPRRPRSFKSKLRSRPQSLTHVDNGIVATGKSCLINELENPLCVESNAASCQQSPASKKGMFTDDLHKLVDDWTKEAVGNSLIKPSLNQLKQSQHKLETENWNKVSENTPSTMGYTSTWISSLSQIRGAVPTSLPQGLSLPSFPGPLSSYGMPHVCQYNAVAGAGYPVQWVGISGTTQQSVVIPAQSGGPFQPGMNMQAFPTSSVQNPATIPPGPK
SMILES,remaining activity
Nc1ccc2ncnc(NCCc3ccc(Oc4ccccc4)cc3)c2c1,114%
CC(C)[C@H](CO)Nc1nc(Nc2cc(N)cc(Cl)c2)c2ncn(C(C)C)c2n1,76.9%
Cc1ccc(NC(=O)c2ccc(CN3CCN(C)CC3)cc2)cc1Nc1nc(-c2cccnc2)cs1,99.9%
COc1ccc(OC)c2c(=S)c3ccccc3[nH]c12,99.1%
O=c1c2ccccc2[nH]c(=S)n1CCN1CCC(=C(c2ccc(F)cc2)c2ccc(F)cc2)CC1,107%
COc1cc2nccc(Oc3ccc(NC(=S)NC(=O)c4ccccc4C)cc3)c2cc1OC,101%
CCOC(=O)c1c(C)[nH]c(/C=C2\C(=O)Nc3ccccc32)c1C,104%
COc1cc2ncnc(Nc3ccc(Oc4ccccc4)cc3)c2cc1OC,87.8%
COc1ccc(C(=O)Nc2sc3c(c2C(N)=O)CCCC3)cc1OC,96.4%
Cn1c2ccccc2c2c3c(c4c5ccccc5n(CCC#N)c4c21)CNC3=O,93.1%
O=C(Nc1cccc(Nc2cc(Nc3cccc(C(F)(F)F)c3)ncn2)c1)C1CC1,100%
CO[C@H]1C[C@@H]2CC[C@@H](C)[C@@](O)(O2)C(=O)C(=O)N2CCCC[C@H]2C(=O)O[C@H]([C@H](C)C[C@@H]2CC[C@@H](O)[C@H](OC)C2)CC(=O)[C@H](C)/C=C(\C)[C@@H](O)[C@@H](OC)C(=O)[C@H](C)C[C@H](C)/C=C/C=C/C=C/1C,102%
Oc1ccc(-c2nc(-c3ccncc3)c(-c3ccc(F)cc3)[nH]2)cc1,101%
O=C1NC(=O)C(c2cn(CCCn3ccnc3)c3ccccc23)=C1Nc1ccccc1,100%
N#CC(C#N)=C(N)/C(C#N)=C/c1ccc(O)cc1,99.8%
CN(C)c1ccc(C=C2C(=O)Nc3ccccc32)cc1,98.1%

# Sample 4 — species: mouse; sample: microsomes or S9; concentration: 2 µM; time: 0.5 h
Structure (SMILES),remaining compound
Cc1ccccc1CNc1ccccc1NC(=O)c1ccc(C(=O)c2cc[nH]c2)cc1,21.1%
CCN1CCN(c2nc(-c3ccc(C)cc3)cc3cc(C)ccc23)CC1,1.43%
O=C(COC(=O)c1ccc(Br)o1)c1ccc(Cl)c(Cl)c1,79.1%
c1ccc(-n2ncc3c2N=C(N2CCC(n4ccnc4)CC2)NC3)cc1,97.1%
CCC(CC)CN1CC2(CCN(C(=O)[C@@H]3C[C@H](N)CN3C)CC2)OC1=O,> 100%
Cc1cc(NCc2cn[nH]c2-c2ccccc2)ccc1Br,12.1%
Cc1noc(C)c1Cc1nc(-c2c(Cl)nc3sccn23)no1,2.87%

# Mixed results
Structure (SMILES),target,assay,setting,quantity,value
"CNC(=O)Nc1ccc2c(c1)C1(CC2)OC(=O)N(CC(=O)N(Cc2ccc(F)cc2)[C@@H](C)C(F)(F)F)C1=O (single isomer, unassigned)","D(3) dopamine receptor (DRD3, Homo sapiens, UniProt P35462)",binding,off-target scan,Ki,1.14 µM

# Some of these lines once more (sample 3):
SMILES,remaining activity
COc1ccc(OC)c2c(=S)c3ccccc3[nH]c12,99.1%
O=c1c2ccccc2[nH]c(=S)n1CCN1CCC(=C(c2ccc(F)cc2)c2ccc(F)cc2)CC1,107%
COc1cc2nccc(Oc3ccc(NC(=S)NC(=O)c4ccccc4C)cc3)c2cc1OC,101%
